Published values collected from several papers.
Every numbered part comes from another study and shows a few of its results, in no order. Values joined by “and” are separate records of one study, mostly repeats; a detail may differ.
Sequence of UniProt Q07912 (whole entry, looked up): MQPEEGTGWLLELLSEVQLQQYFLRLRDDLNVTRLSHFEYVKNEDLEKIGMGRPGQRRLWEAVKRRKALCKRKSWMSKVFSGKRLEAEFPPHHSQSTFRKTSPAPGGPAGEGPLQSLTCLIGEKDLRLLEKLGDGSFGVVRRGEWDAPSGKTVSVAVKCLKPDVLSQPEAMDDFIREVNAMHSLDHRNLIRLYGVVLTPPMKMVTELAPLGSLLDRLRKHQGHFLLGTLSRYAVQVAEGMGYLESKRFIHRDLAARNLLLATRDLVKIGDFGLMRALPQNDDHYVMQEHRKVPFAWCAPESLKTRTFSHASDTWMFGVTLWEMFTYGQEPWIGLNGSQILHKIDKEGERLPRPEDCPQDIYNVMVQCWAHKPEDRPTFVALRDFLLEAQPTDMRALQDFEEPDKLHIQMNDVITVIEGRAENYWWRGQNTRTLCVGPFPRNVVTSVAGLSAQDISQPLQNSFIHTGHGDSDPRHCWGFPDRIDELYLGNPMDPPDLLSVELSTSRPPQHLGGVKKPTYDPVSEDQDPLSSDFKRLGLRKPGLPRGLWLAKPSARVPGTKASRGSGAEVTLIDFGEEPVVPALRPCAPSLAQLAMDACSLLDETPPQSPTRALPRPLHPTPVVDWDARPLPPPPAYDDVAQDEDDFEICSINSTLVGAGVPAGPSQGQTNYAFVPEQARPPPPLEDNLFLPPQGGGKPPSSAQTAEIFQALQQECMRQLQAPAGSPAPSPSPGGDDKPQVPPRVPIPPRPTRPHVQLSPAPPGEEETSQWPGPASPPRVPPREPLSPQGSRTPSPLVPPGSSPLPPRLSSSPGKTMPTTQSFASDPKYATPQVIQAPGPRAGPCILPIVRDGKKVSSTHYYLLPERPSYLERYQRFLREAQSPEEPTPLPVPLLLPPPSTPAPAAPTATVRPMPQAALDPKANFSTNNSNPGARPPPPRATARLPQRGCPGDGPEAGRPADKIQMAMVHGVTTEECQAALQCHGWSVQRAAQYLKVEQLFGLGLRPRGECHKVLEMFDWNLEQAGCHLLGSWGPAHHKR
Sequence of UniProt Q13976 (whole entry, looked up): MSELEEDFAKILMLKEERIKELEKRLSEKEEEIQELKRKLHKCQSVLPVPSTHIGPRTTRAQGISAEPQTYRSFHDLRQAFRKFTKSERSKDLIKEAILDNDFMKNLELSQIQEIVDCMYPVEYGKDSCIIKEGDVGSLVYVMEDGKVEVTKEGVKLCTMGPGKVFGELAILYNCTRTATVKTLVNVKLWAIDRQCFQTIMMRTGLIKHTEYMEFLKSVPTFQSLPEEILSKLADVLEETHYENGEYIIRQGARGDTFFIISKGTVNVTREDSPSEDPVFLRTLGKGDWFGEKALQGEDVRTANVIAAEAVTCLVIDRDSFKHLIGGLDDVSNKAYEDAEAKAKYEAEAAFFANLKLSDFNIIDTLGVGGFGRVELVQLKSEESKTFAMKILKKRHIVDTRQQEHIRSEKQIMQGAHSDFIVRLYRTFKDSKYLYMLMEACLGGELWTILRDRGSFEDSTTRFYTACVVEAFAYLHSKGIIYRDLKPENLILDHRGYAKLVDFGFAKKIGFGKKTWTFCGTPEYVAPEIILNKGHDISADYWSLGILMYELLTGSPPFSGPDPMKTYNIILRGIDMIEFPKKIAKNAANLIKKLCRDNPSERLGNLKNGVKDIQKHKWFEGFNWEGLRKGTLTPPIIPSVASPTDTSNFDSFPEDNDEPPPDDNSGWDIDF
Sequence of UniProt P22455 (whole entry, looked up): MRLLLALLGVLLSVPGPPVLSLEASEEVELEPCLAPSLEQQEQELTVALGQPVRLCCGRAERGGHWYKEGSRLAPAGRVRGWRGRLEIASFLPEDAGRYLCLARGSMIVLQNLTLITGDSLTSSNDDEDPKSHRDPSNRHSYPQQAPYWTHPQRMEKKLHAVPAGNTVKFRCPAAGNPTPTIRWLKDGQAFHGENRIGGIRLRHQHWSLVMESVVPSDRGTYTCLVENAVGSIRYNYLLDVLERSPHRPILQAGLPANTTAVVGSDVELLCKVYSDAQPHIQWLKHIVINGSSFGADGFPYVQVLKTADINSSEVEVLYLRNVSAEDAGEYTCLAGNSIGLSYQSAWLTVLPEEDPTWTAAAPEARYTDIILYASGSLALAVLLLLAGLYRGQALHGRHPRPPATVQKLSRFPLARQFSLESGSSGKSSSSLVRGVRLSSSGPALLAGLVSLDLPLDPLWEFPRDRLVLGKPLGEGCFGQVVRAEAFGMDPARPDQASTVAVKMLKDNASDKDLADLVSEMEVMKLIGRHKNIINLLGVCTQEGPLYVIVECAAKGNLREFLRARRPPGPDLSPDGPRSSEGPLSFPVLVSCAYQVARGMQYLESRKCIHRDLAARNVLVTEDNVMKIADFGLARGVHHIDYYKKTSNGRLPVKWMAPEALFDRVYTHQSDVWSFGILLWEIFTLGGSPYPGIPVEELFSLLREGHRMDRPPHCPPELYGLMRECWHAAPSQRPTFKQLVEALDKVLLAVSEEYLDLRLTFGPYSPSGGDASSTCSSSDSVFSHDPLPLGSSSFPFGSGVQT
Sequence of UniProt O75716 (whole entry, looked up): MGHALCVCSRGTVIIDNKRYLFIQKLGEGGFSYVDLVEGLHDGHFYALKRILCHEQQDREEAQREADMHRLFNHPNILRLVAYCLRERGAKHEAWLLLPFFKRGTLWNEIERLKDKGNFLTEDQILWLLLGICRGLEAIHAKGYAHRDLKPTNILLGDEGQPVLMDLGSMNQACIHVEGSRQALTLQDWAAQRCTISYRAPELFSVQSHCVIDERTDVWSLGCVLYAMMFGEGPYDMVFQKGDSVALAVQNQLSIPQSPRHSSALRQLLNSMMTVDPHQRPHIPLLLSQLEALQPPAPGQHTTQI
Sequence of UniProt P49761 (whole entry, looked up): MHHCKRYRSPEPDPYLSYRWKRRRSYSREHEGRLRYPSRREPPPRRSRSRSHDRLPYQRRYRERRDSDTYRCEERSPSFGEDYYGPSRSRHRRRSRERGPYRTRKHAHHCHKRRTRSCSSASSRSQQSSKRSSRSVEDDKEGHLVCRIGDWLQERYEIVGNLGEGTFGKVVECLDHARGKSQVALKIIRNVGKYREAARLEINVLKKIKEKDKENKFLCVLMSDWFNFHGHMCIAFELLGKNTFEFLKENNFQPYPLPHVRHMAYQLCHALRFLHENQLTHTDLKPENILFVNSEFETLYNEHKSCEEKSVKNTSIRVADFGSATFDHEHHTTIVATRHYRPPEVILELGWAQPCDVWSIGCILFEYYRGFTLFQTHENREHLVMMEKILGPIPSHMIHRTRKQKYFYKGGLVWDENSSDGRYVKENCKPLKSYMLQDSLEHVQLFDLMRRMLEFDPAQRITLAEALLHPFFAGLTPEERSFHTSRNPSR
Sequence of UniProt Q96NX5 (whole entry, looked up): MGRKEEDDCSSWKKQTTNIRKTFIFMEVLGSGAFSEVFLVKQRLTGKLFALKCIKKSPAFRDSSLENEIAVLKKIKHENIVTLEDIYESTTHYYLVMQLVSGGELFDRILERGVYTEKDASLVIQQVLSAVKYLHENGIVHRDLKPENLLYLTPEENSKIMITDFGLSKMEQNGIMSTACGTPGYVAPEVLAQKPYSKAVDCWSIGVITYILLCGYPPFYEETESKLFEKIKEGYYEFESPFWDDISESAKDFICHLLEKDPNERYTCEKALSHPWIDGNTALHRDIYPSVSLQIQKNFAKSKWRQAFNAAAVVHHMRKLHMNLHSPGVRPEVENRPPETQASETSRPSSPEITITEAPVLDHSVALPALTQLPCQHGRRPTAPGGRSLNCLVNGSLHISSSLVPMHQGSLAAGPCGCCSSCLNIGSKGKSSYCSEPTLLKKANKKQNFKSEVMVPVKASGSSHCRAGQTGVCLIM
Sequence of UniProt Q16620 (whole entry, looked up): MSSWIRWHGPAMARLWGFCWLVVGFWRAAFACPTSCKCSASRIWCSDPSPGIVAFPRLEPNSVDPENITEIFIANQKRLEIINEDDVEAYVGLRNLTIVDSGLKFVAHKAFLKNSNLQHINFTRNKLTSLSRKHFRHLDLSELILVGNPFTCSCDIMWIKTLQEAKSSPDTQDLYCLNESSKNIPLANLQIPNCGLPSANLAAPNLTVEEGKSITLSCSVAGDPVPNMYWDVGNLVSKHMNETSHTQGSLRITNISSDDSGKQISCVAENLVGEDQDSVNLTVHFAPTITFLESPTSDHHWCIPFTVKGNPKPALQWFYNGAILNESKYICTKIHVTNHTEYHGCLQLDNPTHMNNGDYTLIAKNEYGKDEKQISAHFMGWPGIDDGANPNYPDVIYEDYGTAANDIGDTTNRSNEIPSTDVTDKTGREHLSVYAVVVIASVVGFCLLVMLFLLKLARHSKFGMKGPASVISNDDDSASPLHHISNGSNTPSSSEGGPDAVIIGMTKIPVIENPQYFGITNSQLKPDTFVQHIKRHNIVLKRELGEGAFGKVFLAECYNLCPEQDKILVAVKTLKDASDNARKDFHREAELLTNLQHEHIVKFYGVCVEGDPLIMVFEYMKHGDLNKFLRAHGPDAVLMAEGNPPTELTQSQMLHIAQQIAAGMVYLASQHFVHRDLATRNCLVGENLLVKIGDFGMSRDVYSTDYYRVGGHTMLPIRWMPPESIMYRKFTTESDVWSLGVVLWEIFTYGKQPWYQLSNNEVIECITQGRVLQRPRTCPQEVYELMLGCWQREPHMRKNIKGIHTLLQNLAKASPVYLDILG

Study 1
SMILES: C[C@@H](c1cccc(C#N)c1)n1cc(Cl)cc(C(N)=O)c1=N
Effect on: cell-free assay
Method: competition with immobilised ligand
Tested at: 1 µM
target | remaining binding [%]
CAMK2G (Homo sapiens, UniProt Q13555) | 100
DAPK1 (Homo sapiens, UniProt P53355) | 100
MYLK4 (Homo sapiens, UniProt Q86YV6) | 100
FGFR4 (Homo sapiens, UniProt P22455) | 100
PKN1 (Homo sapiens, UniProt Q16512) | 83
LRRK2 (Homo sapiens, UniProt Q5S007, G2019S) | 100
STK16 (Homo sapiens, UniProt O75716) | 85
PRKG1 (Homo sapiens, UniProt Q13976) | 100
CLK3 (Homo sapiens, UniProt P49761) | 100
TNK2 (Homo sapiens, UniProt Q07912) | 95
CAMK2D (Homo sapiens, UniProt Q13557) | 100
PAK6 (Homo sapiens, UniProt Q9NQU5) | 86
NLK (Homo sapiens, UniProt Q9UBE8) | 91
CAMK1G (Homo sapiens, UniProt Q96NX5) | 100
NTRK2 (Homo sapiens, UniProt Q16620) | 100
PRKCE (Homo sapiens, UniProt Q02156) | 89
BRSK2 (Homo sapiens, UniProt Q8IWQ3) | 95
Tyrosine-protein kinase ABL1, non-phosphorylated (ABL1, Homo sapiens, UniProt P00519, F317L) | 85
CDK14 (Homo sapiens, UniProt O94921) | 100
KIT (Homo sapiens, UniProt P10721, D816V) | 94
HUNK (Homo sapiens, UniProt P57058) | 100
PIK3CD (Homo sapiens, UniProt O00329) | 100
MYLK (Homo sapiens, UniProt Q15746) | 88
NTRK3 (Homo sapiens, UniProt Q16288) | 0
MAP2K2 (Homo sapiens, UniProt P36507) | 76

Study 2
Target: Cyclin-dependent kinase 5, with p35 (CDK5, Homo sapiens, UniProt Q00535)
Sequence of UniProt Q00535 (whole entry, looked up): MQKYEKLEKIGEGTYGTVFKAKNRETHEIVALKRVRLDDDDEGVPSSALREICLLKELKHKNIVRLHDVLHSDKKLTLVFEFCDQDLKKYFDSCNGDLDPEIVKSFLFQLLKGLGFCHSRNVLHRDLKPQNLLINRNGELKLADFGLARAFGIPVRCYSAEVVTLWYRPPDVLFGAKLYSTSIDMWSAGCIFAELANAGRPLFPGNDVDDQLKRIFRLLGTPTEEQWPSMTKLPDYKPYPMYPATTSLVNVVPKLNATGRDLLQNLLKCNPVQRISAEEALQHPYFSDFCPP
Effect on: enzyme activity
Mode: inhibitor
Tested at: 0.5 µM
Baseline: control
Compound | remaining activity [%]
CSc1nc(-c2ccnc(N[C@@H](C)c3ccccc3)c2)c(-c2ccc(F)cc2)[nH]1 (racemic) | 101
NC(=O)c1ccc(N(C(N)=O)c2c(F)cccc2F)nc1-c1ccc(F)cc1F | 99.9
O=C1NC(=O)C(c2c[nH]c3ccccc23)=C1c1c[nH]c2ccccc12 | 79.5
CC(C)(C)n1nc(Cc2cccc3ccccc23)c2c(N)ncnc21 | 95.6
CC#CC(=O)Nc1cc2c(Nc3ccc(F)c(Cl)c3)ncnc2cn1 | 97.9
Oc1ccc(Nc2nc(-c3ccc(Cl)cc3)cs2)cc1 | 104
Cc1ccc(NC2=CC(=O)c3sc(C)nc3C2=O)cc1 | 86.3
Fc1ccc(-c2nc3n(c2-c2ccncc2)CCS3)cc1 | 97.8
CCc1[nH]c(-c2ccc(OC)cc2)nc1-c1ccncc1 | 100
CC(=O)c1ccc(N2CCOCC2)cc1O | 97.1
CCCC(=O)Oc1ccc2[nH]c(C(=O)c3cc4ccccc4[nH]3)cc2c1 | 97.5
CC[n+]1c(/C=C/N(C)c2ccccc2)n(-c2ccccc2)c2ccc(-c3nc4ccccc4s3)cc21 | 97.6

Study 3
Compound: Cc1cc2c(C(N)=O)c(N)n(-c3c(C)ccc(O)c3C)c2nc1C
Baseline: DMSO
cell line | method | tested at | time | cell growth
NCI-H69 | MTT | 511 pM | 5 d | 66% and 86.2%
NCI-H1048 | MTT | 371 nM | 5 d | 58.5% and 75.1%
NCI-H69 | MTT | 13.7 nM | 5 d | 108% and 132%
NCI-H446 | Vi-Cell counting | 3.33 µM | 5 days | 53.3% and 45.9%
NCI-H446 | Vi-Cell counting | 511 pM | 5 days | 101% and 104%
NCI-H69 | MTT | 124 nM | 5 d | 100% and 93.8%
NCI-H69 | MTT | 4.57 nM | 5 d | 104% and 114%

Study 4
Cell line: mouse MPNST tumor cells
Method: high-content immunofluorescence imaging
Measured: nuclear SOX9
Tested at: 10 µM
Time: 12 h
Setting: mean of 2 replicates
Baseline: DMSO control
Reading: higher = more nuclear SOX9
SMILES | nuclear SOX9 intensity
CCN(CC)CCNC(=O)COc1ccc(OC)cc1 | 103 % of DMSO
CCOC(=O)[C@H](CCc1ccccc1)N[C@@H](C)C(=O)N1CCC[C@H]1C(=O)O | 96.9 % of DMSO
CCCCOc1ccc(C(=O)CCN2CCCCC2)cc1 | 110 % of DMSO
COC(=O)Nc1ccc(-c2nc(N3CCOCC3)c3cnn(C4CCN(Cc5cccnc5)CC4)c3n2)cc1 | 210 % of DMSO
CCOC(=O)N1CCC(Nc2c(NCCN3CCN(c4cccc(C(F)(F)F)c4)CC3)c(=O)c2=O)CC1 | 95.7 % of DMSO
c1ccc(C(OC2CCN(CCCc3nn[nH]n3)CC2)c2ccccc2)cc1 | 92 % of DMSO
Cc1ccc(NC(=O)C(C)C)cc1C1CCN(Cc2ccc(Oc3ccc(F)c(F)c3)cc2)CC1 | 220 % of DMSO
O=C(O)COCCN1CCN(C(c2ccccc2)c2ccc(Cl)cc2)CC1 (stereo not shown) | 101 % of DMSO

Some of these lines once more (study 1):
target | remaining binding [%]
STK16 (Homo sapiens, UniProt O75716) | 85
PRKG1 (Homo sapiens, UniProt Q13976) | 100
CLK3 (Homo sapiens, UniProt P49761) | 100
TNK2 (Homo sapiens, UniProt Q07912) | 95
CAMK2D (Homo sapiens, UniProt Q13557) | 100
